Published values pooled from the literature.
A part holds a random share of what one study measured.
Sequence of UniProt Q15349 (whole entry, looked up): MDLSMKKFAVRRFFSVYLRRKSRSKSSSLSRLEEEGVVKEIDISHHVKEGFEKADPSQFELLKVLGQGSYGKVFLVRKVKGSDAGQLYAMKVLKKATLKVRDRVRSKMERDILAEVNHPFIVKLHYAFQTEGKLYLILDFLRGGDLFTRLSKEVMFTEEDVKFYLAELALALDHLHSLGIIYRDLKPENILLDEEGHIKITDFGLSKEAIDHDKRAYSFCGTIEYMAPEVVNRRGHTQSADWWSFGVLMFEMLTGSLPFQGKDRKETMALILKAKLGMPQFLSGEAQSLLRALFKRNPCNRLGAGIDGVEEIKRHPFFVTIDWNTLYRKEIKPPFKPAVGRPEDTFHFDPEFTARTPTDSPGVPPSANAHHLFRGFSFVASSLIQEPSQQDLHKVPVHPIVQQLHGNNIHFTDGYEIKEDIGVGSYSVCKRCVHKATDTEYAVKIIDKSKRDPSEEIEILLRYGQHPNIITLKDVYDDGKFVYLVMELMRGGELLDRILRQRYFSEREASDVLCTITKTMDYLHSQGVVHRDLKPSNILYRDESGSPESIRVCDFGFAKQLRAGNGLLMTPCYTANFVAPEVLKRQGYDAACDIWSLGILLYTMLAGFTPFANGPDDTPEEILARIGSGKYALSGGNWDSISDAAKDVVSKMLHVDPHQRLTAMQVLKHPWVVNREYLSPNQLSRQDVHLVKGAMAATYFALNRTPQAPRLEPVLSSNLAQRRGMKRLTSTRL
Sequence of UniProt Q8WTQ7 (whole entry, looked up): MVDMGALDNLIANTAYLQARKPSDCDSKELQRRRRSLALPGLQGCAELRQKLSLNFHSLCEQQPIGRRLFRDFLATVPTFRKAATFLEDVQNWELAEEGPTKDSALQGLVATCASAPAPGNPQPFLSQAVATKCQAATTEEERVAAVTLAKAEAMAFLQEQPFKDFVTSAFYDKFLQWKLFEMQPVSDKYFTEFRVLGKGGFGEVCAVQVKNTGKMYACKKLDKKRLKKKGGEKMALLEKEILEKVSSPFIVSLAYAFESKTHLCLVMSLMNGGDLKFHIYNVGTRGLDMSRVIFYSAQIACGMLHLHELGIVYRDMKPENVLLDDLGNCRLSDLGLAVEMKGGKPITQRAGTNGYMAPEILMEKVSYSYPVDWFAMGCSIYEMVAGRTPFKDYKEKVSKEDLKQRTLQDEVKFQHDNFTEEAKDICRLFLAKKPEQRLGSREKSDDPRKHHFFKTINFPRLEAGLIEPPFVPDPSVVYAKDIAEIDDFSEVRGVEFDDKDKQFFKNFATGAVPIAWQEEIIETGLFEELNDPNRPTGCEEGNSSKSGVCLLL
Sequence of UniProt Q99683 (whole entry, looked up): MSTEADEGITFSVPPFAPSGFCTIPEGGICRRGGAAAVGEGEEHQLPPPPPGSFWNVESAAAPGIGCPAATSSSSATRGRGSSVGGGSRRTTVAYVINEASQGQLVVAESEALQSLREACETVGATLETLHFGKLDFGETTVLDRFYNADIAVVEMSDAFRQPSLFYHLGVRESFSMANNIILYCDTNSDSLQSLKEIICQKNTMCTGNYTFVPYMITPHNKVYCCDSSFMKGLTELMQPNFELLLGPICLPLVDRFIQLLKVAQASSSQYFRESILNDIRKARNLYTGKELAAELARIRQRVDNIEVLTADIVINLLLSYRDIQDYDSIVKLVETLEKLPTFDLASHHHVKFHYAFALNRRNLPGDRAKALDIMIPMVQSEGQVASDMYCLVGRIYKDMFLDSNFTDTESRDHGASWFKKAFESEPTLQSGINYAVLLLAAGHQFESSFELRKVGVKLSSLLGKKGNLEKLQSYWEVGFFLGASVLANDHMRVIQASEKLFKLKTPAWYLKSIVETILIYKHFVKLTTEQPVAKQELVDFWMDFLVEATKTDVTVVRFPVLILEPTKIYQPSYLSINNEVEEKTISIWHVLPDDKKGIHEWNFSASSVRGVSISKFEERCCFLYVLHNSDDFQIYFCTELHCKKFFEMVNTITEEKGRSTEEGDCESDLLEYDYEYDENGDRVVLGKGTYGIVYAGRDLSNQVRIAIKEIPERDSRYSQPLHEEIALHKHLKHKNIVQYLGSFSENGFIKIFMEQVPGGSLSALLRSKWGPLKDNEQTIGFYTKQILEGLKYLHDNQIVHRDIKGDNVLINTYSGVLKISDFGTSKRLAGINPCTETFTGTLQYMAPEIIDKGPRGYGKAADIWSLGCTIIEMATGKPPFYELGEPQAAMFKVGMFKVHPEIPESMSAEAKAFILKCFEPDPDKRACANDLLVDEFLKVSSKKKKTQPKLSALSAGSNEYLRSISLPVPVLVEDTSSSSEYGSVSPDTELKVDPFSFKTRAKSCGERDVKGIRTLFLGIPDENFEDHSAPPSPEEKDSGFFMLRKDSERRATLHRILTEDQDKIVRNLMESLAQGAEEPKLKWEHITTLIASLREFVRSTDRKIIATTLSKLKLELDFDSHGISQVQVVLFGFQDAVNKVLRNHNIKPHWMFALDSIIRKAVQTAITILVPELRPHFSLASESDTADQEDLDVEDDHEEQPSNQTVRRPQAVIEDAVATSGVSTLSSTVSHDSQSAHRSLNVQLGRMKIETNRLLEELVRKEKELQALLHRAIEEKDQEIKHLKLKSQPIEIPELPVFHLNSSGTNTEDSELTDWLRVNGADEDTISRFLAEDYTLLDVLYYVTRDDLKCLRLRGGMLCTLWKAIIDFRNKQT
Sequence of UniProt P21673 (whole entry, looked up): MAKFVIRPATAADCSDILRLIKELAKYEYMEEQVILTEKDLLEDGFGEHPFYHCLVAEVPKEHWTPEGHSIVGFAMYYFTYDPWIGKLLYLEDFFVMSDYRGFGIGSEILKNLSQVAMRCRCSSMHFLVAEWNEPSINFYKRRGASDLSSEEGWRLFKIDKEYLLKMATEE
Sequence of UniProt Q9Y6M4 (whole entry, looked up): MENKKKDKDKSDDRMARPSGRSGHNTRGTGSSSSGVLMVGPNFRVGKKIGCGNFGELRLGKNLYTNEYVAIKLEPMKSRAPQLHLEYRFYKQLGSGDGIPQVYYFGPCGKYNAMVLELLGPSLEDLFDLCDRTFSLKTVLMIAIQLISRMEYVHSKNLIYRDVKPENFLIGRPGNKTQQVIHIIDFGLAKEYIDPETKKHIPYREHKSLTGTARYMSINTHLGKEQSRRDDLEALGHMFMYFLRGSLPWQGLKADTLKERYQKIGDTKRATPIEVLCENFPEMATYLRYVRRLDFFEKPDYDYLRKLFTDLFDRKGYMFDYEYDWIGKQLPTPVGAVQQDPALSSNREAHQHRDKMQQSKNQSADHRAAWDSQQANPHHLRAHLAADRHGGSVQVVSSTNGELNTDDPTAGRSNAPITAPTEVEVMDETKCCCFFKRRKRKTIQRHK

Set 1
SMILES: O=C1NC(=O)c2c1c1c3ccccc3n3c1c1c2c2ccccc2n1[C@H]1CC[C@@H]3O1
Observed: enzyme activity
Action: inhibitor
Tested at: 0.5 µM
Baseline: control
| target | remaining activity [%] |
| --- | --- |
| MAP3K5 (Homo sapiens, UniProt Q99683) | 56.2 |
| RPS6KA2 (Homo sapiens, UniProt Q15349) | 1.33 |
| CSNK1G3 (Homo sapiens, UniProt Q9Y6M4) | 108 |
| GRK7 (Homo sapiens, UniProt Q8WTQ7) | 53.4 |

Set 2
Cell line: HEK-293T-ACE2
Method: Hoechst nuclei count
Tested at: concentration not given
Setting: counter-screen
Baseline: vehicle
| Compound | cell number |
| --- | --- |
| O=C(/C=C/c1cccc(S(=O)(=O)Nc2ccccc2)c1)NO | 70.5% |
| C[C@H]1O[C@]2(CS1)CN1CCC2CC1.C[C@H]1O[C@]2(CS1)CN1CCC2CC1.Cl.Cl.O | 98.3% |
| CNC(=O)c1cnn(-c2nc(N)c3ncn([C@@H]4O[C@H](CO)[C@@H](O)[C@H]4O)c3n2)c1 | 99.6% |

Mixed results
Tested at: 10 µM
| SMILES | tested on | action | matrix | time | baseline | quantity | value |
| --- | --- | --- | --- | --- | --- | --- | --- |
| c1cc2c(cc1[C@H]1OC[C@H]3[C@@H]1CO[C@@H]3c1ccc3c(c1)OCO3)OCO2 | Diamine acetyltransferase 1 (Homo sapiens, UniProt P21673) | inhibitor | – | – | control | remaining activity | 88.8% |
| O=C1CCC(N2Cc3c(ccc4c3OCC43CCN(Cc4ccccc4)CC3)C2=O)C(=O)N1 (stereo not drawn) | – | – | Caco-2 | 2 h | – | efflux ratio | 1.11 |

A few entries again (set 2):
| Compound | cell number |
| --- | --- |
| CNC(=O)c1cnn(-c2nc(N)c3ncn([C@@H]4O[C@H](CO)[C@@H](O)[C@H]4O)c3n2)c1 | 99.6% |
